Assay results of several laboratories.
Each numbered part is a random draw from the data of one study; scales do not carry over between parts. Substitutions count along the parent as printed.

Set 1
Target: Interferon regulatory factor 7, full length, phosphomimetic (IRF7, Homo sapiens, UniProt Q92985, residues 1-503, S471D/S472D/S475D/S476D/S477D/S483D/S484D/S487D)
Sequence of UniProt Q92985 (whole entry, unmodified, looked up): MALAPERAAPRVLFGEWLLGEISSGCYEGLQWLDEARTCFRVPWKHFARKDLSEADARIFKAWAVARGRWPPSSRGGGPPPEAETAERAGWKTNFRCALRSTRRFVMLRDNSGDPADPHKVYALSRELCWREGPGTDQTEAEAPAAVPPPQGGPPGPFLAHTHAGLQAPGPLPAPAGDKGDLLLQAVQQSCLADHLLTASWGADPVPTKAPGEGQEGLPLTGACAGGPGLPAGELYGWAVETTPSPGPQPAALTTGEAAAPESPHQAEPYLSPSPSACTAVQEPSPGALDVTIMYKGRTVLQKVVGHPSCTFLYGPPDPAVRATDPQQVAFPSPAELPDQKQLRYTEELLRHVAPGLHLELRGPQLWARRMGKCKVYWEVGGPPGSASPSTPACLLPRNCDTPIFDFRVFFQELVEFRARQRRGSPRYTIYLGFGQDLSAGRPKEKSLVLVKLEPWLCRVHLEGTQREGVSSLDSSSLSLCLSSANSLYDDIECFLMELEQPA
Technique: protein-binding microarray
Form: double-stranded DNA, one strand shown
Medium: in vitro
Concentration: 2200 nM top
Notes: 60-bp whole probe
Together with: salmon DNA 0.4 mg/ml
Relative to: random background probes
Direction: higher = stronger binding
Shared flanks, not repeated: GCCTAGCAC … GTCTTGATTCGCTTGACGCTGCTG
Sequence | fitted relative affinity [z-score]
TTAGGTTTCGGACTGGGCTAGTGCTAG | 3.07
TCAAGTGTGTGTCTGATACTGTGCTAG | 0.245
TCAAATGATTGGTTGAAACTGTGCTAG | -0.274
GACGAACCGGGGTTTCGAGACGTGCTA | 1.12
ATCCCGCCTGCCCCACAGAAGTGCTAG | 0.724
TTAGGTTTCCTATTGCTTTAGTGCTAG | 2.12
ATATATATATTGTTAGTGTAGTGCTAG | 0.916
TTAGGTTCCGGGACTGGGTTAGTGCTA | -0.284
GACGAACTGGGGACTGGAGCCGTGCTA | -0.523
GACAGACTGCTTATCCTGACGTGCTAG | 0.53
GACGATCGCAGTTTCGAGACGTGCTAG | 3.05
GACGATTTCAGGTCCGAGACGTGCTAG | 0.83
TTCGAACTGAGTATCGATTAGTGCTAG | 0.241
TTAGATTGCAGTTCCGATTAGTGCTAG | 0.935
TTAGGTTTCGACTATCGGTGAGTGCTA | 3.1

Set 2
Molecule: PhoQ, residues 284 288 289 292 302 303 SASVAL
Technique: Sort-seq
Item: YFP reporter
Medium: E. coli
Notes: PhoQ-PhoP variant library
Together with: 10 µM Mg2+
Relative to: high Mg2+ state
Direction: higher = stronger signaling
target | fold induction
PhoP, residues 12 14 15 18 19 QQAYL (Escherichia coli, UniProt P23836) | 12.4
PhoP, residues 12 14 15 18 19 LFHKL (Escherichia coli, UniProt P23836) | 14.4
PhoP, residues 12 14 15 18 19 GMGLL (Escherichia coli, UniProt P23836) | 1.05

Set 3
Target: DDIT3, bZIP domain (human)
Technique: DHFR protein complementation
Medium: yeast
Notes: single substitutions, most at no-binding floor
Relative to: wild-type JUN-FOS pair
Direction: higher = stronger binding
Starting sequence: JUN, bZIP domain (human); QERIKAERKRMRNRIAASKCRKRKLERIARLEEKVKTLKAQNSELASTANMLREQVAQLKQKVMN; partner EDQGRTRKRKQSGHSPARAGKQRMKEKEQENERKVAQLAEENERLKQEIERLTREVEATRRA
Variant | binding fitness [natural log]
I28N | -0.0725
E32F | -1.04
K39Y | -0.247
M51C | -0.0414
T37E | 0.164
E33A | -0.0115
S43F | -0.0122
I28C | -0.146
L52G | -1.41
M51W | -0.0278

Set 4
Target: CCNF, cyclin fold, Cln2 fusion (human)
Technique: yeast growth competition, sequencing
Medium: yeast
Notes: strong parent motif
Relative to: not given
Direction: higher = stronger binding
Starting sequence: SCAPER docking peptide (human); SNARRSLNFGGST
Variant | normalised enrichment score
S12P | 8.07
L7D | 1.42
R4A | 4.68
R5T | 0.813
S6M | 7.86
G11A | 6.78
R4G | 1.69
N2V | 6.33
R5N | -0.227
F9T | 0.666
S12N | 7.14
R5H | 0.366
S6R | 9.48

Some of these lines once more (set 4):
Variant | normalised enrichment score
L7D | 1.42
G11A | 6.78
S6M | 7.86
R4G | 1.69
